Published values pooled from the literature.
Compare with care: the assays were run in different laboratories. Several values in a cell are separate wells, animals, samples, runs or records. ± gives the spread as reported.

Structure (SMILES)	cell line	assay	test system	setting	scale	measurement	result
C=CC1=C(C)c2cc3[n-]c(cc4nc(cc5[n-]c(cc1n2)c(C)c5C=C)C(C)=C4CCC(=O)O)c(CCC(=O)O)c3C.[Zn+2]	SH-SY5Y	RNA-seq, refers to: TGFB1I1 mRNA	–	5 µM, 5 h	baseline: untreated cells	fold change	1.6
COc1cccc(C2CC(c3ccccc3Cl)Nc3ncnn32)c1 (centres unmarked)	MEF with TRE-FLAG-LMNB1	LMNB1 level, high-content screening	–	150 µM	–	maximum inhibition	3%
C=CCn1c(=O)c2cnc(Nc3ccc(N4CCN(C)CC4)cc3)nc2n1-c1ccc2c(n1)[C@@](O)(CC)CC2	MDA-MB-231	flow cytometry, refers to: pHH3-γH2Ax+	–	concentration not given	–	G2/M cells in subpopulation	8.5%
[Cl-].[Cl-].[Os+2].c1cnc2c(c1)ccc1cccnc12.c1cnc2c(c1)ccc1cccnc12.c1cnc2c(c1)ccc1cccnc12	SK-MEL-28	cell growth, SRB	–	dark, normoxia	–	GI50	125 µM
Cc1cc2c(cc1C)[n+](Cc1ccc3ccccc3c1)cn2Cc1ccc2ccccc2c1	NSCLC cell lines	NCI60 one-dose screen	–	10 µM	–	mean growth percentage	-59%
Cn1cc(Nc2nccc(-c3ccc4c(c3)CN(C3COC3)CC[C@H]4NC(=O)c3cn(C(C)(C)C)nn3)n2)cn1	mouse splenic B cells	refers to: UVB-Induced MAPK signalling	–	30 mg/kg, IgD-activated in vivo	baseline: vehicle, direction not given	pathway activation z-score	2.53
C=C[C@@]1(C)CC(=O)[C@]2(O)[C@@]3(C)[C@@H](O)CCC(C)(C)[C@@H]3[C@H](O)[C@H](OC(C)=O)[C@@]2(C)O1	PBMC	MSD	–	0.001 µM, unit not given, with: PGE2	baseline: DMSO	cAMP level difference	-1.58
OCCCc1n(Cc2ccc3ccccc3c2)c2ccccc2[n+]1Cc1ccc2ccccc2c1	NSCLC cell lines	NCI60 one-dose screen	–	10 µM	–	mean growth percentage	33.1%
Cc1ccc2c(c1)C(=O)[C@]1(O)CCN(c3ccc4nc(C)ccc4c3)C1=N2.Cl	murine cells	–	–	concentration not given, with: cycloheximide	baseline: vehicle	PDGFRα turnover slowing	> 3 fold
CSc1cc(Oc2ccnc3[nH]c(=O)cnc23)ccc1NC(=O)Nc1cc(C(C)(C)C)nn1-c1ccccc1	patient-derived cell line (sample C)	reverse phase protein array, refers to: p53 pSer15	human	1 µM, 4 h	baseline: DMSO	phospho/total p53 ratio	0.64
CC(C)NCC(O)c1ccc(O)c(O)c1 (centres unmarked)	mouse ventricular cardiomyocytes	–	–	dose not given, 0.159 s	–	sarcomere length	1.59 µm
CCn1cc(-c2cc(Cn3ccoc3=N)cc3c2CCN([C@@H](C)c2cc(OC)ccn2)C3=O)c(C(F)(F)F)n1	769-P	cell growth, inhibitor	–	120 h	–	EC50	0.12 µM
O=C(Nc1c(Cl)cncc1Cl)c1ccc(OC(F)F)c(OCC2CC2)c1	PBMC	MSD	–	0.0001 µM, unit not given, with: PGE2	baseline: DMSO	cAMP level difference	-0.72
CCc1cnc(N2CCC(c3nc(COc4ccc(-n5cnnn5)cc4)cs3)CC2)nc1	HEK-293T	RNA-seq GSEA, refers to: HALLMARK_MYOGENESIS	–	concentration not given	direction not given	normalized enrichment score	-0.963
O=c1cc(-c2ccc(O)cc2)oc2c([C@@H]3OC[C@H](O)[C@H](O)[C@H]3O)c(O)c([C@@H]3O[C@H](CO)[C@@H](O)[C@H](O)[C@H]3O)c(O)c12	AC16	refers to: IL-1β, MCP-1, IL-6	culture supernatant	concentration not given, with: angiotensin II	–	cytokine level	decreased
CC(=O)Nc1cccc(-n2c(=O)n(C3CC3)c(=O)c3c(Nc4ccc(I)cc4F)n(C)c(=O)c(C)c32)c1	LoVo (KRAS G13D)	cell viability, resazurin	–	6.25 nM, 72 h	baseline: DMSO	average fractional effect	30%
CCCCN1CCN(c2ccc3[nH]c(-c4ccc5[nH]c(-c6ccc(OCC)cc6)nc5c4)nc3c2)CC1	SF-539	SRB	–	10 µM, 48 h	–	growth percent	67.9%
C[C@H](NC(=O)C(=O)Nc1ccccc1C(C)(C)C)C(=O)N[C@@H](CC(=O)O)C(=O)COc1c(F)c(F)cc(F)c1F	THP-1 CASP1 knockout, LPS-primed	inhibitor	–	25 µM, 2 h, with: nigericin 6.25 µM	–	LDH release	20.9% and 17.4% and 16.3%
Cc1cc(Nc2ncc(Cl)c(Nc3ccccc3S(=O)(=O)C(C)C)n2)c(OC(C)C)cc1C1CCNCC1	CLB-BAR	phosphoproteomics LC-MS/MS, refers to: ATR phosphorylation	–	200 nM, 60 min	baseline: untreated	log2 fold change	-2.82
CCCCc1nc(Cl)c(CO)n1Cc1ccc(-c2ccccc2-c2nn[nH]n2)cc1	human PBMC	RNA-seq, refers to: NRG1 mRNA	–	10 µg/mL, 24 h	baseline: untreated control	log2 fold change	-3.02
CC/C(=N\NC(=O)C(C)Nc1ccccc1)c1ccc(O)c(C)c1O (centres unmarked)	SK-OV-3	Western blot	–	10 µM, 1 h, 3D gellan gum culture, unit not given	baseline: DMSO	TAZ band intensity	0.28 ± 0.02
CC(=O)Nc1cc(Oc2ccc3c(c2)CCN3C(=O)Nc2ccc(CN3CCN(C)CC3)c(C(F)(F)F)c2)ncn1	MUTZ5 B-ALL cells	CellTiter-Glo	–	concentration not given, 3 d	–	cell proliferation	inhibited
C[C@H]1CN(C2COC2)CCN1c1ccc(Nc2cc(-c3ccnc(N4CCn5c(cc6c5CC(C)(C)C6)C4=O)c3CO)cn(C)c2=O)nc1	TMD8 wild-type	calcium flux, FLIPR	–	1 h preincubation, with: anti-IgM	–	maximum inhibition	98.4%
Nc1cccc2c1C(=O)N(C1CCC(=O)NC1=O)C2=O (centres unmarked)	MM1.S	XTT	–	1.4 µM	baseline: untreated	viability	18%

Structure (SMILES)	cell line	assay	test system	setting	scale	measurement	result
CC/C(=N\NC(=O)NCc1cccc(O)c1)c1ccc(O)c(C)c1O	SK-OV-3	Western blot	–	10 µM, 6 h, 2D culture, unit not given	baseline: DMSO	TAZ band intensity	0.19 ± 0.08
C=CC(=O)N1CCC[C@@H](c2ccc(C(N)=O)c3[nH]ccc23)C1	TMD8 wild-type	calcium flux, FLIPR	–	1 h preincubation, with: anti-IgM	–	maximum inhibition	41.6%
Cc1c(C(=O)NN2CCOCC2)nn(-c2ccc(Cl)cc2Cl)c1-c1ccc(I)cc1	CHO wild-type cells lacking MOR, membranes	basal G-protein activity	–	10 µM	–	inhibition	~20%
C=CC(=O)Nc1cc(Nc2ncc(C(=O)OC(C)C)c(-c3cn(C)c4ccccc34)n2)c(OC)cc1N(C)CCN(C)C	NCI-H2073 EGFR ASV knock-in	cell proliferation, CellTiter-Glo	–	–	baseline: knock-in over parental NCI-H2073	selectivity ratio	1.4
COc1cnc2cccc(N3CCc4c(cc(Cn5ccnc5C)cc4-c4cn(C)nc4C(F)(F)F)C3=O)c2c1	SW1271	cell growth, inhibitor	–	120 h	–	EC50	> 30 µM
C=CC(=O)N1[C@@H](c2ccc3c(c2)OCO3)c2[nH]c3ccccc3c2C[C@H]1C(=O)NC	rat DRG neurons	–	–	1.111 µM, 48 h, with: vincristine 40 nM	–	neuron degeneration	72.6% and 69.3%
COC(=O)CCc1n(Cc2ccc3ccccc3c2)c2ccccc2[n+]1Cc1ccc2ccccc2c1	NSCLC cell lines	NCI60 one-dose screen	–	10 µM	–	mean growth percentage	9.86%
Nc1ncnc2c1ncn2[C@@H]1O[C@H](CO)[C@@H](O)[C@H]1O	activated human T cells	refers to: inosine	–	50 µM	baseline: DMSO	log2 fold change	2.2 and 2.7 and 1.7
Cn1c(Nc2nc3ccc(C(F)(F)F)cc3s2)nc2cc(C(=O)NCCOCCO)ccc21	SH-SY5Y	RNA-seq, refers to: DKK1 mRNA	–	5 µM, 5 h	baseline: untreated cells	fold change	2.36
O=C(NC1CCCc2c1cnn2-c1ccc(O)cc1)c1ccccn1 (centres unmarked)	Drosophila S3	RNA-Seq	–	1 µM, 4 h, with: oleic acid 200 µM	baseline: DMSO with oleic acid	number of differentially expressed genes	592
CCCN(c1ccc(OC)cc1)S(=O)(=O)C1CC2OC1C(c1ccc(O)cc1)=C2c1ccc(O)cc1 (centres unmarked)	MCF7 3xERE-luc, steroid-deprived	ERE luciferase reporter, agonist	–	–	baseline: vehicle	Emax	-6.6%
Cc1cccc(-c2[nH]c(CNc3ccccc3F)nc2-c2ccc3ncnn3c2)n1	bone marrow CD138+ myeloma cells	XTT	–	1 µM, phenol red-free RPMI	–	viability	17%
c1ccc2cc(Cn3cc[n+](Cc4ccc5ccccc5c4)c3)ccc2c1	NSCLC cell lines	–	–	10 µM, average over cell lines	baseline: untreated	growth	38.1%
N#Cc1ccc(Oc2ccc3c(c2)COB3O)cc1	PBMC	MSD	–	0.0001 µM, unit not given, with: PGE2	baseline: DMSO	cAMP level difference	-0.783
CCn1cc(-c2cc(Cn3ccnc3)cc3c2CCN([C@H](c2cc(OC)ccn2)C2CC2)C3=O)c(C(F)(F)F)n1	RERF-LC-AI	cell growth, inhibitor	–	120 h	–	EC50	> 30 µM
Cn1cc(C(=O)C(=O)NCCc2c[nH]c3ccccc23)c2ccccc21	BxPC-3, MDA-MB-231, PC-3, HeLa, C4-2, HEK293T	MTT	–	100 µM	–	cytotoxicity	not toxic
CCN1[C@@H](C(=O)NC23CCC(C(=O)O)(CC2)CC3)[C@H](c2cccc(Cl)c2F)[C@]2(C(=O)Nc3cc(Cl)ccc32)C12CCCCC2	well-differentiated liposarcoma cells (MDM2 amplified)	cell proliferation, alamarBlue	–	72 h	–	GI50	0.066 µM
CCc1n(Cc2ccc3ccccc3n2)cc[n+]1Cc1ccc2ccccc2c1.[Br-]	NSCLC cell lines	–	–	upper end of range	–	TGI	≤ 27.6 µM
Cn1cc(-c2ccc(-c3cncc(Cl)c3N3CCC4(CCNC4=O)CC3)cc2)cn1	COLO 205	gene expression, microarray, refers to: CDH11 mRNA	–	concentration not given, 6 h	baseline: untreated cells	log2 fold change	2.28
O=C(/C=C/C=C/C=C/C1CCCCC1)NC1=C[C@@](O)(/C=C/C=C/C=C/C(=O)NC2=C(O)CCC2=O)[C@@H]2O[C@@H]2C1=O	NCI-H146	cell growth, CellTiter-Glo	–	78 h	–	GI50	12.5 µM
COc1ccc(-n2nc(C(C)=O)s/c2=N\N=C(/C)c2ccc(NC(=O)c3ccc(Cl)cc3)cc2)cc1	MCF7	–	–	0.156 µM	–	toxicity	51.7%
O=C(O)COCC(=O)O	hepatocytes, iPSC-derived, line W3	cell viability, RealTime-Glo MT	–	48 h, differentiation day 23	–	IC50	14300 µM
COc1cc(/C=C/C(=O)N2CCC=CC2=O)cc(OC)c1OC	MDA-MB-468	quantitative RT-PCR, refers to: NQO1	–	30 µM, 8 h	baseline: untreated cells	mRNA level	149.2 ± 0.3%
